Results gathered from unrelated publications.
A part holds a random share of what one study measured.

Sample 1
Target: Homeobox protein Hox-B13, full length (HOXB13, Homo sapiens, UniProt Q92826, residues 1-284)
Sequence of UniProt Q92826 (whole entry, looked up): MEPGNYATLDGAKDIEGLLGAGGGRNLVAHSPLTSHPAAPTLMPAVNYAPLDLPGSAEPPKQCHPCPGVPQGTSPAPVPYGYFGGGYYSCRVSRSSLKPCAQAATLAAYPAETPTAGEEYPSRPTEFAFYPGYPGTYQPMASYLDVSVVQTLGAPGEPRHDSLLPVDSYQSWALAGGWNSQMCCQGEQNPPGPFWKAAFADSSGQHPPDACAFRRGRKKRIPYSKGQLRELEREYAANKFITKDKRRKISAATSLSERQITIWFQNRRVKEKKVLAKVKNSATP
Technique: protein-binding microarray
Molecule type: hairpin DNA
Sample: in vitro
Tested at: not given
Notes: whole hairpin DNA, median over replicate spots
Relative to: not given
Direction: higher = stronger binding
Measurement: median fluorescence
GAGGCCTTTTTATTGGGGCCTCCTGGCCCCAATAAAAAGGCCTCACACTC: 4880 a.u.
GAGGCCGTTTTGTTGGGGCCTCCTGGCCCCAACAAAACGGCCTCACACTC (5mC at 33): 4210 a.u.
GAGGCCGTTTTACGACGGCCTCCTGGCCGTCGTAAAACGGCCTCACACTC: 4460 a.u.
GAGGCCCGTTTACGAGGGCCTCCTGGCCCTCGTAAACGGGCCTCACACTC (5mC at 7): 5000 a.u.

Sample 2
Target: Sal-like protein 4, full length isoform A (SALL4, Homo sapiens, UniProt Q9UJQ4, residues 1-1053)
Sequence of UniProt Q9UJQ4 (whole entry, looked up): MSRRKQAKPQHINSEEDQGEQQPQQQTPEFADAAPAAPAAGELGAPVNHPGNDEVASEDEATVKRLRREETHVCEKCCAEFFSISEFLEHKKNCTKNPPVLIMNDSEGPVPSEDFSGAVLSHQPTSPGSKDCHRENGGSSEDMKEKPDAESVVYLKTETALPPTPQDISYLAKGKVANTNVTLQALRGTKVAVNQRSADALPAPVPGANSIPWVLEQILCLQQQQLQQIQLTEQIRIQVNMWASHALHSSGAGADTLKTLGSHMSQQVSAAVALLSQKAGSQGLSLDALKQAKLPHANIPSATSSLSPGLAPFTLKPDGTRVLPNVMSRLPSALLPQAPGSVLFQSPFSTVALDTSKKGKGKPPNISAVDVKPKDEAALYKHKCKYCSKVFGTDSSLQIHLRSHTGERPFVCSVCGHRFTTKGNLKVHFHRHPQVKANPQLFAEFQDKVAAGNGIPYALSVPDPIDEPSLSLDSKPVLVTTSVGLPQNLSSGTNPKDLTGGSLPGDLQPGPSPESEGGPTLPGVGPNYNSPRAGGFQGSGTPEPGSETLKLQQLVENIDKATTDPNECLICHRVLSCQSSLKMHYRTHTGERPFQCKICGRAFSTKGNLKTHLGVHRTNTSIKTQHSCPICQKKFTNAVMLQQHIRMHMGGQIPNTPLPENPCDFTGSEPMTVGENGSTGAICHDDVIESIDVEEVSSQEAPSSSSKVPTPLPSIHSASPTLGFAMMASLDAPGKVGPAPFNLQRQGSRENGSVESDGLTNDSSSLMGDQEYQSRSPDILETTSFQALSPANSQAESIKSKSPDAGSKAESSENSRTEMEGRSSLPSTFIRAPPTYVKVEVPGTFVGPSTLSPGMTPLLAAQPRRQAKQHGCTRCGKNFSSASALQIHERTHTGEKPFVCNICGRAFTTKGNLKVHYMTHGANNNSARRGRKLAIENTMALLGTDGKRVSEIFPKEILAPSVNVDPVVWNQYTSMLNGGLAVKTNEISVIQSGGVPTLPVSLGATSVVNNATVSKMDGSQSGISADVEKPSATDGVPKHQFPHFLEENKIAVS
Technique: universal PBM
Molecule type: double-stranded DNA, one strand shown
Sample: in vitro
Tested at: 600 nM
Notes: 8-mer, flanks averaged, mean of replicates
Direction: higher = stronger binding
Measurement: E-score
AGTTGAAG: 0.00555
ACTATGCA: 0.0251
ACCCCTTA: -0.0335
CCCTGTGA: -0.196
CGTAACGC: -0.174
GAGAATCA: 0.000425
AAAGCAGT: 0.0963
ATACTCGA: 0.144

Sample 3
Target: Histone acetyltransferase KAT6A, winged helix 1, GST fusion (KAT6A, Homo sapiens, UniProt Q92794, residues 1-85)
Technique: protein binding microarray
Molecule type: double-stranded DNA, one strand shown
Sample: in vitro
Tested at: not given
Notes: 8-mer, flanks averaged, mean of 2 arrays, mostly near background
Relative to: not given
Direction: higher = stronger binding
Measurement: E-score
Residues (chain): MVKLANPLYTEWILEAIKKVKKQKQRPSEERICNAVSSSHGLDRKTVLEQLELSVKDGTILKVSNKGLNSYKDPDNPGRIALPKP
GACAAATA: -0.201
AATCCAGA: -0.308
ACGCAGTA: -0.0151
AAACTTAC: -0.181
AATTAGCG: 0.229
CCGAATGC: 0.249
AGCTCACT: -0.101
CCCCAGCA: -0.0277

Other studies, line by line
PhoQ, residues 284 288 289 292 302 303 DDMDFR — fold induction (PhoP, residues 12 14 15 18 19 QQAYL (Escherichia coli, UniProt P23836); Sort-seq, measured: YFP reporter; E. coli; PhoQ-PhoP variant library, added: 10 µM Mg2+; relative to: high Mg2+ state, higher = stronger signaling): 0.697

Repeated from above (sample 3):
AGCTCACT: -0.101
CCCCAGCA: -0.0277
